Measured values gathered from unrelated publications.
Each line is one published result; not all experiments were run side by side. Numbers after ± are the reported error.

SMILES | cell line | assay | system | conditions | scale | quantity | result
O=C(/C=C/C=C/C=C/C1CCCCC1)NC1=C[C@@](O)(/C=C/C=C/C=C/C(=O)NC2=C(O)CCC2=O)[C@@H]2O[C@@H]2C1=O | NCI-H446 | cell growth, CellTiter-Glo |  | 78 h |  | GI50 | 7.74 µM
CCn1cc(-c2cc(Cn3ccnc3)cc3c2CCN([C@H](c2cc(OC)ccn2)C2CC2)C3=O)c(C(F)(F)F)n1 | SK-BR-3 | cell growth, inhibitor |  | 120 h |  | EC50 | > 30000 nM
CN(C)CCOC(c1ccc(Cl)cc1)c1ccccn1 (stereo not drawn) | human iPSC-derived cardiomyocytes | MyBP-C/MYH ratio, plate-normalised SD score |  | concentration not given, primary screen | direction not given | activity score | -5.4
CC(C)C[C@@H](/C=C/S(C)(=O)=O)NC(=O)[C@H](CC(C)C)NC(=O)[C@H](CC(C)C)NC(=O)OCc1ccccc1 | C127 LDR GFP reporter cells | silenced GFP reporter induction, activator, high-content imaging |  | retest, two-run mean |  | efficacy | 81%
CCn1cc(-c2cc(Cn3ccoc3=N)cc3c2CCN([C@@H](C)c2cc(OC)ccn2)C3=O)c(C(F)(F)F)n1 | MDA-MB-436 | cell growth, inhibitor |  | 120 h |  | EC50 | 117 nM
CSc1cc(Oc2ccnc3[nH]c(=O)cnc23)ccc1NC(=O)Nc1cc(C(C)(C)C)nn1-c1ccccc1 | patient-derived B cell clone line | reverse phase protein array | human | 1 µM, 4 h | reference: DMSO | phospho-Ser73 c-Jun to total ratio | 1.09
CCC[C@@H]1C[C@@H](C(=O)N[C@@H]([C@H]2O[C@H](SC)[C@H](O)[C@@H](O)[C@H]2O)[C@@H](C)O)N(C)C1 | human iPSC-derived cardiomyocytes | MyBP-C/MYH ratio, plate-normalised SD score |  | concentration not given, primary screen | direction not given | activity score | -5.5
Cn1cc(Nc2nccc(-c3ccc4c(c3)CN(C3COC3)CC[C@H]4NC(=O)c3cn(C(C)(C)C)nn3)n2)cn1 | mouse splenic B cells | measured: apelin Endothelial signalling pathway |  | 30 mg/kg, IgD-activated in vivo | reference: vehicle, direction not given | pathway activation z-score | 2.14
CC/C(=N\NC(=O)NCc1cccc(O)c1)c1ccc(O)c(C)c1O | SK-OV-3 | Western blot, measured: LATS |  | 10 µM, 24 h, 3D gellan gum culture, unit not given | reference: β-actin | protein level | 0.35 ± 0.03
COc1cc(NC(C)CCCN)c2ncccc2c1 (stereo not drawn) | MYBPC3 iPSC cardiomyocytes | plate-normalised |  | concentration not given, 24 h, hit retest |  | MyBP-C level | 1.7%
C#CCOc1cc(C(=O)Nc2cc(OCCN)c3ccccc3n2)nc(C(=O)Nc2cc(OCCN)c3ccccc3n2)c1 | U2OS | cell viability, CellTiter-Glo |  | 72 h | reference: IC50 U2OS over WI-38 | selectivity ratio | 0.8
Nc1cccc2c1C(=O)N(C1CCC(=O)NC1=O)C2=O (stereo not drawn) | MM1.S | XTT |  | 1.8 µM | reference: untreated | viability | 22%
Cc1cc(OCc2nnc(SC3CCCC3)n2-c2cccnc2)ccc1-c1ccc(S(C)(=O)=O)cc1 | MYBPC3 iPSC cardiomyocytes | plate-normalised |  | concentration not given, 24 h, hit retest |  | MyBP-C level | 1%
Cn1c(Nc2nc3ccc(C(F)(F)F)cc3s2)nc2cc(C(=O)NCCOCCO)ccc21 | SH-SY5Y | RNA-seq, measured: RYR3 mRNA |  | 5 µM, 5 h | reference: untreated cells | fold change | 1.75
Cc1n[nH]c2nc(-c3ccc(Cl)cc3)c3c(NC(=O)c4ccccc4)nnc-3n12 | M14 | SRB |  | 10 µM, NCI60 single-dose screen | reference: untreated | cell growth | 101%
O=c1cc(-c2ccccc2)oc2cc(O)cc(O)c12 | human iPSC-derived cardiomyocytes | MyBP-C/MYH ratio, plate-normalised SD score |  | concentration not given, primary screen | direction not given | activity score | 3.2
COc1cnc2cccc(N3CCc4c(cc(Cn5ccnc5C)cc4-c4cn(C)nc4C(F)(F)F)C3=O)c2c1 | JHOS2 | cell growth |  | 120 h |  | EC50 | 460 nM
O=C(O)c1cc(-c2ccccc2)nc2ccccc12 | human iPSC-derived cardiomyocytes | MyBP-C/MYH ratio, plate-normalised SD score |  | concentration not given, primary screen | direction not given | activity score | -3.5
Cn1cc(-c2ccc(-c3cncc(Cl)c3N3CCC4(CCNC4=O)CC3)cc2)cn1 | COLO 205 | gene expression, microarray, measured: ARHGEF39 mRNA |  | concentration not given, 6 h | reference: untreated cells | log2 fold change | -2.26
COc1cc(/C=C/C(=O)N2CCC=CC2=O)cc(OC)c1OC | human iPSC-derived cardiomyocytes | MyBP-C/MYH ratio, plate-normalised SD score |  | concentration not given, primary screen | direction not given | activity score | 3.1
C=CC1=C(C)c2cc3[n-]c(cc4nc(cc5[n-]c(cc1n2)c(C)c5C=C)C(C)=C4CCC(=O)O)c(CCC(=O)O)c3C.[Zn+2] | SH-SY5Y | RNA-seq, measured: DKK2 mRNA |  | 5 µM, 5 h | reference: untreated cells | fold change | 2.33

A few entries again:
SMILES | cell line | assay | system | conditions | scale | quantity | result
Cn1c(Nc2nc3ccc(C(F)(F)F)cc3s2)nc2cc(C(=O)NCCOCCO)ccc21 | SH-SY5Y | RNA-seq, measured: RYR3 mRNA |  | 5 µM, 5 h | reference: untreated cells | fold change | 1.75
CN(C)CCOC(c1ccc(Cl)cc1)c1ccccn1 (stereo not drawn) | human iPSC-derived cardiomyocytes | MyBP-C/MYH ratio, plate-normalised SD score |  | concentration not given, primary screen | direction not given | activity score | -5.4
